# Results gathered from unrelated publications.
SMILES,test,system,conditions,how to read,endpoint,result
CO[C@H]1C[C@@H]2CC[C@@H](C)[C@@](O)(O2)C(=O)C(=O)N2CCCC[C@H]2C(=O)O[C@H]([C@H](C)C[C@@H]2CC[C@@H](OC(=O)NCCOCCOCCOCCOCCOCCOCCOCCOCCC(=O)N3CCc4cc(Cn5nc(-c6ccc7oc(N)nc7c6)c6c(N)ncnc65)ccc4C3)[C@H](OC)C2)C[C@@H](O)[C@H](C)/C=C(\C)[C@@H](O)[C@@H](OC)C(=O)[C@H](C)C[C@H](C)/C=C/C=C/C=C/1C,measured: treatment-related decreased appetite,patients with advanced solid tumours,"intravenous, 1.6 mg/3 mg, any grade, weekly",,patients with AE,40%
Nc1nc2cc(-c3ccc4ncc(C(=O)N5CCOCC5)n4c3)ccc2o1,,advanced solid tumour patients,"dose not given, at least 1 AE, all schedules",reference: patients,patients with drug-related AEs,89%
C=CCNc1c(O)cc2c(O)c1C[C@@H](C)C[C@H](OC)[C@H](O)[C@@H](C)/C=C(\C)[C@H](OC(N)=O)[C@@H](OC)/C=C\C=C(/C)C(=O)N2,,"unresectable or metastatic STS, GIST, other","intravenous, 225 mg/m^2",,patients with sinus bradycardia,33%
CCN(CCO)CCCC(C)Nc1ccnc2cc(Cl)ccc12 (centres unmarked),measured: Chills grade 1,newly diagnosed glioblastoma patients,"oral, 400 mg/dose, with radiotherapy and temozolomide",,patients with adverse event,33%
CN1CC[C@@H](c2c(O)cc(O)c3c(=O)cc(-c4ccc(C(F)(F)F)cc4Cl)oc23)[C@@H]1CO,measured: Nausea,B-cell malignancies or AML,"oral, 100 mg, continuous dosing",,patients with adverse event,12.5%
O=C1Nc2cc3[nH]nc(-c4ccncc4)c3cc2CN1Cc1ccccc1,CTCAE v4.03,advanced solid tumour patients,"intravenous, 3.6 mg/kg, schedules 1/2",,patients with dizziness,0%
N[C@@H]1c2ccccc2OC12CCN(c1cnc3c(N4CCCc5ncccc54)n[nH]c3n1)CC2,,advanced solid tumour patients,"oral, 20 mg once daily",,patients with grade ≥3 TEAE,66.7%
CC(=O)c1c(C)c2cnc(Nc3ccc(C4CCN(CCS(C)(=O)=O)CC4)cn3)nc2n(C2CCCC2)c1=O,,HR+/HER2- advanced breast cancer patients,"oral, 200 mg",,patients with any TRAE,100%

# Excerpt of the above:
SMILES,test,system,conditions,how to read,endpoint,result
Nc1nc2cc(-c3ccc4ncc(C(=O)N5CCOCC5)n4c3)ccc2o1,,advanced solid tumour patients,"dose not given, at least 1 AE, all schedules",reference: patients,patients with drug-related AEs,89%
